Experimental data of several laboratories.
A part holds a random share of what one study measured. Positions count from the first letter of the parent shown.

Series 1 — technique: aptamer microarray, sandwich; form: DNA with 2'F-ANA; matrix: in vitro; tested at: 200 nM; added: Cy3 exosite-II aptamer, 400 nM; direction: higher = stronger binding; strand: GGTTGGTGTGGTTGG
Target: Prothrombin, mature alpha-thrombin (F2, Homo sapiens, UniProt P00734)
Notes: whole 15-mer aptamer, many near background
`2'F-ANA at 2 5 11 14` — result for “mean fluorescence intensity”: 67.6 a.u.
`2'F-ANA at 1 2 3 4 5 6 7 8 9 10 11 15`: “mean fluorescence intensity” 54.3 a.u.
`2'F-ANA at 1 2 4 5 6 9 10 11 12 15`: “mean fluorescence intensity” 55.9 a.u.
Under “mean fluorescence intensity”, `2'F-ANA at 1 2 8 9 10 12 13` is recorded as 88.1 a.u.
`2'F-ANA at 1 2 3 4 6 7 8 11 13 14 15` — result for “mean fluorescence intensity”: 63.7 a.u.
Under “mean fluorescence intensity”, `2'F-ANA at 2 3 4 6 8 9 10 11 12` is recorded as 247 a.u.
`2'F-ANA at 1 4 8 10 13`: “mean fluorescence intensity” 50.1 a.u.
`2'F-ANA at 2 7 9 12 13` — result for “mean fluorescence intensity”: 502 a.u.

Series 2 — technique: protein-binding microarray; form: double-stranded DNA, one strand shown; matrix: in vitro; tested at: not given; direction: higher = stronger binding
Target: Cyclic AMP-responsive element-binding protein 1 (CREB1, Homo sapiens, UniProt P16220, residues 1-327, full length assumed)
Chain of UniProt P16220 (whole entry, looked up): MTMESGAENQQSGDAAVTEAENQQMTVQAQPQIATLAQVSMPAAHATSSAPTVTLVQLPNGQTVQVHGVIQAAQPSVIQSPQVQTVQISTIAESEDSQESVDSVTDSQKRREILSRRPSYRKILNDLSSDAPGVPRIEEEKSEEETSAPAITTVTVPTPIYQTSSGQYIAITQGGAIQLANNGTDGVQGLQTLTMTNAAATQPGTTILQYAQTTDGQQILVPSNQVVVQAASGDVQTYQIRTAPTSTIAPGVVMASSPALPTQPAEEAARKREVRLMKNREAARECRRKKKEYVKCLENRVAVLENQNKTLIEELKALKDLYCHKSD
Notes: k-mer, scored over probes, only values ≥0.25
With `ACGTTAA` the E-score was 0.276.
For `CTCGTCA`, the E-score was 0.289.
`TAGATGA` has an E-score of 0.26.
With `GTCATCA` the E-score was 0.394.
`ACATGAT` has an E-score of 0.256.
`ACATACG` has an E-score of 0.267.
With `AAACGTC` the E-score was 0.305.
`ACGTTAC` has an E-score of 0.323.

Other studies, line by line — HNRNPA1L2: HNRNPA1L2 (Homo sapiens, UniProt Q32P51)
P1: viral docking peptide; KKAKRRLFTISDS; partner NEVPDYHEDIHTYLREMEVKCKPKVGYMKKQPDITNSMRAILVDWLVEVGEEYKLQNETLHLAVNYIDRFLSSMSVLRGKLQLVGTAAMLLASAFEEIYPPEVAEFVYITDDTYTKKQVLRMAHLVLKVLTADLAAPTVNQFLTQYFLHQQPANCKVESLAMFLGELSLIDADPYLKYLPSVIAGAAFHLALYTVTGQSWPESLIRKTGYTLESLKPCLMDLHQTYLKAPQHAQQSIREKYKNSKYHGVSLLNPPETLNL
For `DDX10 (Homo sapiens, UniProt Q13206)`, cross-linked residues read “K453 to K577” (DDX18 (Homo sapiens, UniProt Q9NVP1); cross-linking MS; cell fractions; added: DSSO).
`HNRNPA2B1 (Homo sapiens, UniProt P22626)`: interaction screen “cross-linked” (HNRNPA1L2; cross-linking MS; hits only).
`NONO (Homo sapiens, UniProt Q15233)`: interaction screen “cross-linked” (PSPC1 (Homo sapiens, UniProt Q8WXF1); cross-linking MS; hits only).
`HNRNPA3 (Homo sapiens, UniProt P51991)` — result for interaction screen: “cross-linked” (HNRNPA1L2; cross-linking MS; hits only).
`P1 S11A` — result for “normalised enrichment score”: 5.82 (CCNA2, cyclin fold, Cln2 fusion (human); yeast growth competition, sequencing; yeast; strong parent motif; relative to: not given, higher = stronger binding).
Under cross-linked residues, `GAPDH (Homo sapiens, UniProt P04406)` is recorded as “K5 to S1017” (UBE4A (Homo sapiens, UniProt Q14139); cross-linking MS; cell fractions; added: DSSO).

Repeated from above (series 1):
`2'F-ANA at 1 2 3 4 6 7 8 11 13 14 15` — result for “mean fluorescence intensity”: 63.7 a.u.
Under “mean fluorescence intensity”, `2'F-ANA at 2 3 4 6 8 9 10 11 12` is recorded as 247 a.u.
`2'F-ANA at 1 4 8 10 13`: “mean fluorescence intensity” 50.1 a.u.
